Assay results pooled from the literature.
Every numbered part comes from another study and shows a few of its results, in no order. Changes are numbered by the printed parent chain.

Block 1
Target: Centromere-binding protein 1, full length, His-tagged (CBF1, Saccharomyces cerevisiae, UniProt P17106, residues 1-351)
Sequence of UniProt P17106 (whole entry, looked up): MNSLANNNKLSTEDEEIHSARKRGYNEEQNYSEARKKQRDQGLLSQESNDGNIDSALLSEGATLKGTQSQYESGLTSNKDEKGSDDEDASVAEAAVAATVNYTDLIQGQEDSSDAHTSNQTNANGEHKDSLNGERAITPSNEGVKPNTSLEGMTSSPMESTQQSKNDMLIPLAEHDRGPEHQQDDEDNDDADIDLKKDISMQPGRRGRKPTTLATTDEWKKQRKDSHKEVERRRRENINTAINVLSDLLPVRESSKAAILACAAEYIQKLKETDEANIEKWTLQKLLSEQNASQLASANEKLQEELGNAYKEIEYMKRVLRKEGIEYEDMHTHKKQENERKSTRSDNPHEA
Technique: competition protein-binding microarray
Form: double-stranded DNA, one strand shown
Sample: in vitro
Tested at: 2 µM
Setting: whole 60-bp probe, lowest competitor level
With: Pho4 competitor, 0.05 µM
Reading: higher = stronger binding
Quantity: fluorescence intensity
CGCGGCTCTTGGCAGCACGAGGTGGTTTCACTGCAGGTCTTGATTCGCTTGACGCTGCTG: 115 a.u.
AAAATCTGCGATTGTCATGCCTCCAAGACTGATGTTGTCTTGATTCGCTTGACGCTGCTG: 68.7 a.u.
AAATTACTAAGTTTTCACGTGACATACCCCGTATGAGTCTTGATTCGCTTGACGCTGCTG: 5510 a.u.
ATGGTTAACAGTAATCTCGTGCTGTCAAACATAAAAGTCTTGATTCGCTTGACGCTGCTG: 201 a.u.
GTCTTGTCTCATTGTGACGTGGGTGTCCCCACTTCAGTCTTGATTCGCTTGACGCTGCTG: 80.6 a.u.
AACGATATTTCAGATCAGGTGACGGTTGCTGGTTCAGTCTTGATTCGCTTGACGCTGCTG: 1310 a.u.
AAGACGCTGATTCACCACGTGAGACGAAGATTCAAAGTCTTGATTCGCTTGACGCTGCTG: 1270 a.u.

Block 2
Target: PABPC1L2, full length, GST fusion (mouse, UniProt A0ABA7IW68)
Technique: RNAcompete
Form: RNA
Sample: in vitro
Tested at: 20 nM
Setting: 7-mer, probes averaged, single round
Reference: mean of 7-mers
Reading: higher = stronger binding
Quantity: 7-mer Z-score
Residues (chain): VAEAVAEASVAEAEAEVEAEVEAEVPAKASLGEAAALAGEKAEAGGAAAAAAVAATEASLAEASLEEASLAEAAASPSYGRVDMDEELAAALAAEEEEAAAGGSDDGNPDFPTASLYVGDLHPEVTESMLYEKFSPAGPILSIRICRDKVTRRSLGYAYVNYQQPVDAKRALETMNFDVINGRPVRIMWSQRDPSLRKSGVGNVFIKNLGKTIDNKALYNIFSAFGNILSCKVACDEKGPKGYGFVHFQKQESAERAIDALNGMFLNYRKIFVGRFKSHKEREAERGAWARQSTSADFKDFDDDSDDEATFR
UCACAGC: -0.219
CGUCGUC: -0.454
GCCUAGU: -0.306
AAAUAUC: 1.73
CCUUUCG: -0.45
AAGGGUU: 0.169
ACUCACU: -0.248

Single results of other studies
CCNB2: CCNB2, cyclin fold, Cln2 fusion (human)
P1: SCAPER docking peptide (human); SNARRSLNFGGST; partner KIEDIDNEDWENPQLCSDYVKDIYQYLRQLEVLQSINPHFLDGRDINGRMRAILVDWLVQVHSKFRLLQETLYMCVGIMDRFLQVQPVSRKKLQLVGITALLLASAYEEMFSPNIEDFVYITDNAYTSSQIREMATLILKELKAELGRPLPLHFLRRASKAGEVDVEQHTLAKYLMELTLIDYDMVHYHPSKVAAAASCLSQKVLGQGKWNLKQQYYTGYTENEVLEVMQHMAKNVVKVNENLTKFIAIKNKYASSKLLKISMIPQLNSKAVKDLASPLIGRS
EDLLKELQKQLEE
growth enrichment score (Saccharomyces cerevisiae; binding, competitive growth deep sequencing; peptide, cyclin D3-Cln2 fusion strain; concentration not given, Cln2 score subtracted; direction not given): -0.101

PhoQ, residues 284 288 289 292 302 303 SSCLAV
fold induction (PhoP, residues 12 14 15 18 19 YHFSH (Escherichia coli, UniProt P23836); Sort-seq, measured: YFP reporter; E. coli; PhoQ-PhoP variant library, with: 10 µM Mg2+; reference: high Mg2+ state, higher = stronger signaling): 2.56

P1 G10Y
normalised enrichment score (CCNB2; yeast growth competition, sequencing; yeast; weak parent motif; reference: not given, higher = stronger binding): 0.441

P1 F9T
normalised enrichment score (CCNB2; yeast growth competition, sequencing; yeast; weak parent motif; reference: not given, higher = stronger binding): 0.209

P1 S1Y
normalised enrichment score (CCNB2; yeast growth competition, sequencing; yeast; weak parent motif; reference: not given, higher = stronger binding): 0.641

Some of these lines once more (single results of other studies):
PhoQ, residues 284 288 289 292 302 303 SSCLAV
fold induction (PhoP, residues 12 14 15 18 19 YHFSH (Escherichia coli, UniProt P23836); Sort-seq, measured: YFP reporter; E. coli; PhoQ-PhoP variant library, with: 10 µM Mg2+; reference: high Mg2+ state, higher = stronger signaling): 2.56

P1 G10Y
normalised enrichment score (CCNB2; yeast growth competition, sequencing; yeast; weak parent motif; reference: not given, higher = stronger binding): 0.441
